Assay results of several laboratories.
A part holds a random share of what one study measured.

Series 1
Target: Histone acetyltransferase KAT6A, winged helix 2, GST fusion (KAT6A, Homo sapiens, UniProt Q92794, residues 85-181)
Method: protein binding microarray
Molecule type: double-stranded DNA, one strand shown
Matrix: in vitro
Concentration: not given
Notes: 8-mer, flanks averaged, mean of 2 arrays, mostly near background
Baseline: not given
Direction: higher = stronger binding
Endpoint: E-score
Target sequence (chain): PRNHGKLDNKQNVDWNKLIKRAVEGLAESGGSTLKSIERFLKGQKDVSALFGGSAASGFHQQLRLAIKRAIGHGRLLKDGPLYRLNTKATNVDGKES
Strand = ACAAGCTG; value = 0.131
Strand = ATATGACA; value = -0.0449
Strand = GCTTTACC; value = -0.184
Strand = CCAGTGCA; value = 0.0322
Strand = AAGTGCCA; value = 0.0403
Strand = GAAACAGC; value = 0.0705

Series 2
Target: Sal-like protein 4, full length isoform A (SALL4, Homo sapiens, UniProt Q9UJQ4, residues 1-1053)
Chain of UniProt Q9UJQ4 (whole entry, looked up): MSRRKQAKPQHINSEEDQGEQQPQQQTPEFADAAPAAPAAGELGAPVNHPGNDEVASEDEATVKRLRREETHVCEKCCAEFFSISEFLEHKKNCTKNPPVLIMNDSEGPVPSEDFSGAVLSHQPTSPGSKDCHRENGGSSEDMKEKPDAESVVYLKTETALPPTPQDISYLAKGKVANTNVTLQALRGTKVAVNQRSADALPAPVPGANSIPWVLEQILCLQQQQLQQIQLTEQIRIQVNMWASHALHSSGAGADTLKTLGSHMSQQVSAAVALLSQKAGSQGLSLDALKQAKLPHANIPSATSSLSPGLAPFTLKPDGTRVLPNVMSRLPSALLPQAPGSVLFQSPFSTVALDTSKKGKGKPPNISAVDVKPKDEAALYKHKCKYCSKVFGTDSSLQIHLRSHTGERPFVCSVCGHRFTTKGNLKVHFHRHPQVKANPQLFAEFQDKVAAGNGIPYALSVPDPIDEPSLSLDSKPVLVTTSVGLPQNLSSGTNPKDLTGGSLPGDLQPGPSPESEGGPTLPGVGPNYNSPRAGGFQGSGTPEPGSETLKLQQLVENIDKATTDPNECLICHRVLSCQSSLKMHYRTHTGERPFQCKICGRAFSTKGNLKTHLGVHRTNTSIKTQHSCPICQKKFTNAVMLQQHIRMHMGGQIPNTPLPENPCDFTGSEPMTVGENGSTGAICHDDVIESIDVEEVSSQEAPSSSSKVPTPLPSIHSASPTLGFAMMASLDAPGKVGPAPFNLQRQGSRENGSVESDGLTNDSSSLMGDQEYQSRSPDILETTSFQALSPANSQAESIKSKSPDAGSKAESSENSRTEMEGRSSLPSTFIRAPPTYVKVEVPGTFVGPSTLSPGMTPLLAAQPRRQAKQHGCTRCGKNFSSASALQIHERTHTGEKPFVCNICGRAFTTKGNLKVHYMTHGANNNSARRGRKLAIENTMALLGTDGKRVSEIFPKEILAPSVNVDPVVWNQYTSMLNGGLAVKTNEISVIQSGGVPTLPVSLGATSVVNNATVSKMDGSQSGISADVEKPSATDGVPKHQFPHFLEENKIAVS
Method: universal PBM
Molecule type: double-stranded DNA, one strand shown
Matrix: in vitro
Concentration: 600 nM
Notes: 8-mer, flanks averaged, mean of replicates
Direction: higher = stronger binding
Endpoint: E-score
Strand = AGAGTCGG; value = -0.125
Strand = ATATTGGG; value = 0.221
Strand = TGGGATAA; value = 0.137
Strand = CAATAGGA; value = 0.134
Strand = ATGCCTCG; value = -0.0328

Series 3
Target: RNA binding protein fox-1 homolog 2, RRM domain, GST-SBP tag (RBFOX2, Homo sapiens, UniProt O43251-10, residues 100-194)
Method: RNA Bind-n-Seq
Molecule type: RNA
Matrix: in vitro
Concentration: 365 nM
Notes: natural RNA segment, single round, ends assumed
Baseline: no-protein control
Direction: higher = stronger binding
Endpoint: RBNS enrichment (R)
Residues (chain): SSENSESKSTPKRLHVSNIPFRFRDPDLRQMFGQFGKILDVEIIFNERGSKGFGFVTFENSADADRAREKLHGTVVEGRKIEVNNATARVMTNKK
Strand = GGGAGUUCUACAGUCCGACGAUCAGAUAAUGAAUGACACCUGAAAUGCAUAUGGUAUUUUUGGGAGAGUUAAGGUAUAAUUUGAAGGUUGGCAGACCAGUUGCGCUGAUUACUCUUAGAGAAGAAGAAAUGGAUGGAAUUCUCGGGUGCCAA; value = 0.837
Strand = GGGAGUUCUACAGUCCGACGAUCGAAUCAGGUGCCCGGAGUCUUUGGAGCUCUGAAACUCUCGGCUAUGCAAGACCCCGGGUCCUUGCAGCAGAGCUUCUCAUGGGUGGCUUGCUGGGGCCGGGCCGAGGACUUGGAAUUCUCGGGUGCCAA; value = 0.353
Strand = GGGAGUUCUACAGUCCGACGAUCCGUAUGUAAUAUAGAGACUCCUGGGAUGUUUGGCCAUAUGUUACCGCUUUUGGAAGAAAGUCCAGGGACCCAGAAAAGGGAGGGGGAAGAUACCCAUUUCACCCCAGCGUUGGAAUUCUCGGGUGCCAA; value = 0.381
Strand = GGGAGUUCUACAGUCCGACGAUCCUGCCUAAGCACAUAACUUUCAAGUUUGUACUAUGAUCCAUGCACUCAUUAAUACCUUGCUCUGCAGUUAUUUUCUAGCAGUCUAUAUAGUAGUUUCACAUCUGUAUUAUUGGAAUUCUCGGGUGCCAA; value = 0.267

Further values, each from its own experiment
Molecule = PhoQ, residues 284 288 289 292 302 303 SSCCRF; target = PhoP, residues 12 14 15 18 19 TPWLV (Escherichia coli, UniProt P23836); test = Sort-seq, measured: YFP reporter; test system = E. coli; conditions = PhoQ-PhoP variant library, together with: 10 µM Mg2+; how to read = baseline: high Mg2+ state, higher = stronger signaling; endpoint = fold induction; value = 15.8

Excerpt of the above (series 3):
Strand = GGGAGUUCUACAGUCCGACGAUCGAAUCAGGUGCCCGGAGUCUUUGGAGCUCUGAAACUCUCGGCUAUGCAAGACCCCGGGUCCUUGCAGCAGAGCUUCUCAUGGGUGGCUUGCUGGGGCCGGGCCGAGGACUUGGAAUUCUCGGGUGCCAA; value = 0.353
Strand = GGGAGUUCUACAGUCCGACGAUCCGUAUGUAAUAUAGAGACUCCUGGGAUGUUUGGCCAUAUGUUACCGCUUUUGGAAGAAAGUCCAGGGACCCAGAAAAGGGAGGGGGAAGAUACCCAUUUCACCCCAGCGUUGGAAUUCUCGGGUGCCAA; value = 0.381
